Measurements of several laboratories.
Each numbered part is a random draw from the data of one study; scales do not carry over between parts.

Study 1
Target: POU, POU domain (Salpingoeca helianthica)
Method: Spec-seq
Molecule type: double-stranded DNA, one strand shown
Matrix: in vitro
Concentration: not given
Setting: whole probe, mean of replicates
Reference: not given
Reading: lower = stronger binding
Endpoint: relative binding energy
All sequences stand within: GAGTCGTCTCGTCAGCACA … CCGTAGAGCACTCAGGTC
Residues (chain): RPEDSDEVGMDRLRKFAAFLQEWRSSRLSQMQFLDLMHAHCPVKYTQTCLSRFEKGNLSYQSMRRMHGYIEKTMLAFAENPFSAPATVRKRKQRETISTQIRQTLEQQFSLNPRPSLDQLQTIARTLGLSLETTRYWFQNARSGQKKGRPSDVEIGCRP
TGATGAT: 1.02 ln ratio
TGTCTAT: 1.15 ln ratio
GTGTAAT: 0.818 ln ratio
ACGTAAT: 0.584 ln ratio
TGCGAGA: 1.27 ln ratio
TGAGCAT: 1.15 ln ratio
TGCTGGC: 1.38 ln ratio

Study 2
Target: Interferon regulatory factor 5, full length, phosphomimetic (IRF5, Homo sapiens, UniProt Q13568-2, residues 1-514, S451D/S453D/S456D/S462D)
Method: protein-binding microarray
Molecule type: double-stranded DNA, one strand shown
Matrix: in vitro
Concentration: 940 nM top
Setting: 60-bp whole probe
With: salmon DNA 0.4 mg/ml
Reference: random background probes
Reading: higher = stronger binding
Endpoint: fitted relative affinity
All sequences stand within: GCCTAGCAC … GTCTTGATTCGCTTGACGCTGCTG
TTAGATTACGGGACTGGATTAGTGCTA: -0.418 z-score
TCATGTTTTCATTTTATACTGTGCTAG: 1.29 z-score
TTAGGTCTCCTTTTCCTGTAGTGCTAG: 0.77 z-score
TTAGGTTTCGGTTTCGGTTAGTGCTAG: 16.4 z-score
TCACCTTTCAGTTTTCCACTGTGCTAG: 1.44 z-score
TTAGGTCTCGATTTCGGTTAGTGCTAG: 4.4 z-score
GGCGGACTGGGGTATCGGGACGTGCTA: 0.186 z-score

Study 3
Target: TAR DNA-binding protein 43, full length, His tag (TARDBP, Homo sapiens, UniProt Q13148, residues 1-414)
Method: RNA Bind-n-Seq
Molecule type: RNA
Matrix: in vitro
Concentration: 20 nM
Setting: 6-mer, flanks averaged, single round
With: 150 mM KCl
Reference: input library
Reading: higher = stronger binding
Endpoint: 6-mer enrichment (R)
UUUUGU: 0.769
UUCUGC: 0.592
UAGCAA: 0.669
AUGGCC: 0.822
UCUUUA: 0.58

Mixed results
PhoQ, residues 284 288 289 292 302 303 SSCCRF  fold induction (PhoP, residues 12 14 15 18 19 NIMAP (Escherichia coli, UniProt P23836); Sort-seq, refers to: YFP reporter; E. coli; PhoQ-PhoP variant library, with: 10 µM Mg2+; reference: high Mg2+ state, higher = stronger signaling): 0.604

Some of these lines once more (study 3):
UCUUUA: 0.58
